Measurements collected from several papers.
A part holds a random share of what one study measured.

Set 1
Target: Interferon regulatory factor 3, full length, phosphomimetic (IRF3, Homo sapiens, UniProt Q14653, residues 1-427, S386D/S396D/S398D/S402D/T404D/S405D)
Technique: protein-binding microarray
Molecule type: double-stranded DNA, one strand shown
Medium: in vitro
Tested at: 2540 nM top
Setting: 60-bp whole probe
Added: salmon DNA 0.4 mg/ml
Baseline: random background probes
Direction: higher = stronger binding
Construct (chain): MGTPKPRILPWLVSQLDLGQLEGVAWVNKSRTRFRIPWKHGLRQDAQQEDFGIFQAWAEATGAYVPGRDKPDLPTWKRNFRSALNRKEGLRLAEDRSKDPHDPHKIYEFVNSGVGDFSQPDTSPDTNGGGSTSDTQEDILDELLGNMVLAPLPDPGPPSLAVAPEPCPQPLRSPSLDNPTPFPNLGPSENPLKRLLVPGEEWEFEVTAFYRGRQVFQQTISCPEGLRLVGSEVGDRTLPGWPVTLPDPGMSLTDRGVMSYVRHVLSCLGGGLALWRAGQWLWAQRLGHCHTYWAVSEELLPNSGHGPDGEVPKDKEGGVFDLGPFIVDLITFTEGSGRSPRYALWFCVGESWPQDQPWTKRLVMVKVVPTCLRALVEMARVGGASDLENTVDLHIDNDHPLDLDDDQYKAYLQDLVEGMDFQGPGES
Under “fitted relative affinity”, `GCCTAGCACGACGATCTCAGTATCGAGTCGTGCTAGGTCTTGATTCGCTTGACGCTGCTG` is recorded as 1.25 z-score.
`GCCTAGCACATAGAACTGGGGTTTCGATTAGTGCTAGTCTTGATTCGCTTGACGCTGCTG` — result for “fitted relative affinity”: 1.63 z-score.
`GCCTAGCACTCAAATGTCCTCCTCTCACTGTGCTAGGTCTTGATTCGCTTGACGCTGCTG` — result for “fitted relative affinity”: 0.739 z-score.
Under “fitted relative affinity”, `GCCTAGCACGACGGTATCGGTCTCGTGACGTGCTAGGTCTTGATTCGCTTGACGCTGCTG` is recorded as 4.57 z-score.

Set 2
Target: Histone acetyltransferase KAT6A, both winged helices, GST fusion (KAT6A, Homo sapiens, UniProt Q92794, residues 1-181)
Technique: protein binding microarray
Molecule type: double-stranded DNA, one strand shown
Medium: in vitro
Tested at: not given
Setting: 8-mer, flanks averaged, mean of 2 arrays, mostly near background
Baseline: not given
Direction: higher = stronger binding
Construct (chain): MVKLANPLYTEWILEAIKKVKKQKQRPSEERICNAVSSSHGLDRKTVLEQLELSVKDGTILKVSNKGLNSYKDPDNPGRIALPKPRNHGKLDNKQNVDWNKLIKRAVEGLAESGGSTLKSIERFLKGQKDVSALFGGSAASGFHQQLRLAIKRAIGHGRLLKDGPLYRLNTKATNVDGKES
For `AGTCCGAA`, the E-score was 0.0699.
For `GATGCAAC`, the E-score was -0.205.
The E-score of `AGGGGGTC` is reported as -0.154.
`CGCTCCGA` gave an E-score of 0.224.

Set 3
Target: Centromere-binding protein 1, full length, His-tagged (CBF1, Saccharomyces cerevisiae, UniProt P17106, residues 1-351)
Sequence of UniProt P17106 (whole entry, looked up): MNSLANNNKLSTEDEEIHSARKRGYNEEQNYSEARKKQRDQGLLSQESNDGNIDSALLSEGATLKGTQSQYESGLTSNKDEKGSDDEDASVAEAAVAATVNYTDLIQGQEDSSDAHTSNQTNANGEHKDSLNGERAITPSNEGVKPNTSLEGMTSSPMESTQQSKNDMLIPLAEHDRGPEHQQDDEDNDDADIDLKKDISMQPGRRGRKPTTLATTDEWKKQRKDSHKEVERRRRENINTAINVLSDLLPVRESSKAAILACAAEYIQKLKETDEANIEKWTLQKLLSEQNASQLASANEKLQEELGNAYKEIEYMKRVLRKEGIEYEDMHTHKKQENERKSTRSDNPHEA
Technique: competition protein-binding microarray
Molecule type: double-stranded DNA, one strand shown
Medium: in vitro
Tested at: 2 µM
Setting: whole 60-bp probe, lowest competitor level
Added: Pho4 competitor, 0.05 µM
Direction: higher = stronger binding
With `AGTACCACCTCTTTGAACGTGACAAAAGGTAGTAATGTCTTGATTCGCTTGACGCTGCTG` the fluorescence intensity was 242 a.u.
For `AACTATGCTATAAAAAACGTGACTCGGGTTCTCAGTGTCTTGATTCGCTTGACGCTGCTG`, the fluorescence intensity was 1590 a.u.
With `TTGCTGTCCAGCAAAAACGTGATGGCCACTTCGGACGTCTTGATTCGCTTGACGCTGCTG` the fluorescence intensity was 376 a.u.

Other studies, line by line
`PhoQ, residues 284 288 289 292 302 303 WVSSAF` gave a fold induction of 10.8 (PhoP, residues 12 14 15 18 19 AYFRS (Escherichia coli, UniProt P23836); Sort-seq, item: YFP reporter; E. coli; PhoQ-PhoP variant library, added: 10 µM Mg2+; baseline: high Mg2+ state, higher = stronger signaling).

A few entries again (set 1):
Under “fitted relative affinity”, `GCCTAGCACGACGATCTCAGTATCGAGTCGTGCTAGGTCTTGATTCGCTTGACGCTGCTG` is recorded as 1.25 z-score.
